Measurements collected from several papers.
Protocols differ between the studies behind these lines. Several values in a cell are separate wells, animals, samples, runs or records. ± marks the error that the study gave.

SMILES | organism | test | system | conditions | how to read | endpoint | result
Cc1ccc2c(c1)nc(NC(=O)c1cccc(C(F)(F)F)c1)n2[C@H]1CC[C@H](N)CC1 | Trypanosoma brucei gambiense | growth inhibition, CellTiter-Glo | STIB930 | 48 h |  | EC50 | 490 nM and 500 nM and 350 nM and 190 nM
CC1CCC(C(C)C)C(OC(=O)Cn2c(-c3ccc(Br)cc3)[n+](C)c3ccccc32)C1.[Cl-] (centres unmarked) | Trypanosoma cruzi | reporter mRNA translation, inhibitor, refers to: Renilla luciferase mRNA | cell-free extract | concentration not given, test 2 | reference: positive over negative control | translation activity | 80.6% and 87.3%
CC1=C(C)C(Oc2c(F)cc3c(C)cc(=O)oc3c2F)OC1=O (racemic) | Phelipanche ramosa | seed germination, stimulant | seeds |  |  | EC50 | 4.7 nM
CC(=O)N(C)CCN1CCN(c2cnc3c(cc(C(=O)NCc4ccc(Cl)cc4)c(=O)n3CC(=O)N3CC(C)(F)C3)n2)C1=O | human cytomegalovirus | viral replication, GFP reporter | MRC-5, AD169-GFP |  |  | EC50 | 1750 nM
COc1cccc(Nc2nc(NCC3CCCO3)c3ccccc3n2)c1.Cl (centres unmarked) | Trypanosoma cruzi | reporter mRNA translation, inhibitor, refers to: capped polyadenylated Renilla luciferase mRNA | cell-free extract | concentration not given | reference: positive over negative control | translation activity | 86.3% and 76.7% and 78.9% and 77.8%
Cn1c(=O)c(-c2ccccc2Cl)cc2cnc(Nc3cccc(S(C)(=O)=O)c3)nc21 | Cryptosporidium parvum | parasite growth, immunofluorescence count | HCT-8, IOWA | 48 h |  | EC50 | 42 ± 29 nM
Cc1cc(C(=O)Nc2nc3cccc(C)c3n2[C@H]2CCCCN(C(=O)/C=C/CN(C)C)C2)ccn1 | Trypanosoma brucei gambiense | growth inhibition, CellTiter-Glo | STIB930 | 48 h, mean value |  | EC50 | 58 nM
O=C(Nc1cccc(CO)c1)c1cc(-c2ccccc2)n(-c2ccccc2)n1 | dengue virus 2 | viral replication, immunofluorescence | Vero, New Guinea C |  |  | EC50 | 4100 nM
CC1=CC(OC=C2C(=O)OC3c4ccccc4CC23)OC1=O (racemic) | Arabidopsis thaliana | seed germination, stimulant | htl-3 expressing ShHTL7 | 34 °C, continuous light |  | EC50 | 0.66 nM
CN1CCCN(c2cnc3c(cc(C(=O)NCc4ccc(Cl)cc4)c(=O)n3CC(=O)N3CC(C)(F)C3)n2)C1=O | human cytomegalovirus | viral replication, GFP reporter | MRC-5, AD169-GFP |  |  | EC50 | 1890 nM
O=C(Nc1ccc([N+](=O)[O-])cc1O)Nc1ccccc1Br | Cryptosporidium parvum | parasite growth, qRT-PCR | HCT-8 | 44 h |  | EC50 | 7720 nM
